Assay results collected from several papers.
Parts stem from different laboratories: compare values within a part only.

Block 1
Target: PABPC1L2, full length, GST fusion (mouse, UniProt A0ABA7IW68)
Technique: RNAcompete
Molecule type: RNA
Sample: in vitro
Tested at: 20 nM
Setting: 7-mer, probes averaged, single round
Relative to: mean of 7-mers
Reading: higher = stronger binding
Measurement: 7-mer Z-score
Residues (chain): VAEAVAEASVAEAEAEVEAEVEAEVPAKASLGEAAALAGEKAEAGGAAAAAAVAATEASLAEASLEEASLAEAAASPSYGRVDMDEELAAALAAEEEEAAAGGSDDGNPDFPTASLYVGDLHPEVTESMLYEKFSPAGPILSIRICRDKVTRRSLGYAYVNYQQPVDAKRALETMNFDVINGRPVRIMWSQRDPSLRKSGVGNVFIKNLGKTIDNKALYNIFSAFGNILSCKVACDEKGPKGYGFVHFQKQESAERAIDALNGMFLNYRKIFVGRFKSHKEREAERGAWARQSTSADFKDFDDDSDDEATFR
Strand = AACAUUU; value = 0.227
Strand = UGCGGAC; value = 0.0841
Strand = CUGGAAA; value = 0.582
Strand = GAUUCCG; value = -0.311

Block 2
Target: RNA binding protein fox-1 homolog 2, RRM domain, GST-SBP tag (RBFOX2, Homo sapiens, UniProt O43251-10, residues 100-194)
Technique: RNA Bind-n-Seq
Molecule type: RNA
Sample: in vitro
Tested at: 365 nM
Setting: natural RNA segment, single round, ends assumed
Relative to: no-protein control
Reading: higher = stronger binding
Measurement: RBNS enrichment (R)
Strand = GGGAGUUCUACAGUCCGACGAUCAAUUUUGCUACUGUUAUGAAUCAUAAGAUGAAAUAUCUGGUAUGCAACCCACAGGUUGAGAACUACUGCUCUAAGCCAAAGAUGAAAAUGGGAUUUACAUGCAGAACAAAUGGAAUUCUCGGGUGCCAA; value = 0.385
Strand = GGGAGUUCUACAGUCCGACGAUCGCGAGCAAUUGCUAGUUGUCUUGAGGAGCAUGAGGAAUUCAGGAGCAGAAGGUCAGGAUAGCAUGAGAUAGUCUCAAUGUGGCCAACCAAAAGGACAAAACUGACAGGAAUGGAAUUCUCGGGUGCCAA; value = 15.4
Strand = GGGAGUUCUACAGUCCGACGAUCCCAGAACUAAAUUACAUAGAUGAAUACUCCUGCUCCAGUGGCCUGGAUACCAAUCUCUCCUGUCUUUAAUGUUAUUUUCAAAGACUACUCUCAAGAUCCAUUAGCUUUUAUGGAAUUCUCGGGUGCCAA; value = 0.554

Other studies, line by line
Substance = CAGTACCG; target = Histone acetyltransferase KAT6A, winged helix 1, GST fusion (KAT6A, Homo sapiens, UniProt Q92794, residues 1-85); assay = protein binding microarray; test system = double-stranded DNA, one strand shown, in vitro; conditions = not given, 8-mer, flanks averaged, mean of 2 arrays, mostly near background; scale = relative to: not given, higher = stronger binding; measurement = E-score; value = 0.294
Substance = PhoQ, residues 284 288 289 292 302 303 NLALSC; target = PhoP, residues 12 14 15 18 19 FWNTL (Escherichia coli, UniProt P23836); assay = Sort-seq, item: YFP reporter; test system = E. coli; conditions = PhoQ-PhoP variant library, added: 10 µM Mg2+; scale = relative to: high Mg2+ state, higher = stronger signaling; measurement = fold induction; value = 2.49
Substance = ATTAACAC; target = Histone acetyltransferase KAT6A, winged helix 2, GST fusion (KAT6A, Homo sapiens, UniProt Q92794, residues 85-181); assay = protein binding microarray; test system = double-stranded DNA, one strand shown, in vitro; conditions = not given, 8-mer, flanks averaged, mean of 2 arrays, mostly near background; scale = relative to: not given, higher = stronger binding; measurement = E-score; value = 0.0883

Repeated from above (other studies, line by line):
Substance = PhoQ, residues 284 288 289 292 302 303 NLALSC; target = PhoP, residues 12 14 15 18 19 FWNTL (Escherichia coli, UniProt P23836); assay = Sort-seq, item: YFP reporter; test system = E. coli; conditions = PhoQ-PhoP variant library, added: 10 µM Mg2+; scale = relative to: high Mg2+ state, higher = stronger signaling; measurement = fold induction; value = 2.49
Substance = ATTAACAC; target = Histone acetyltransferase KAT6A, winged helix 2, GST fusion (KAT6A, Homo sapiens, UniProt Q92794, residues 85-181); assay = protein binding microarray; test system = double-stranded DNA, one strand shown, in vitro; conditions = not given, 8-mer, flanks averaged, mean of 2 arrays, mostly near background; scale = relative to: not given, higher = stronger binding; measurement = E-score; value = 0.0883
